# Results collected from several papers.
# Numbered parts are unrelated; each lists some results of a single study. Changes are numbered by the printed parent chain.

# Study 1 — technique: aptamer microarray, sandwich; form: DNA with 2'F-ANA; medium: in vitro; concentration: 200 nM; with: Cy3 exosite-II aptamer, 400 nM; reading: higher = stronger binding; oligonucleotide: GGTTGGTGTGGTTGG
# Target: Prothrombin, mature alpha-thrombin (F2, Homo sapiens, UniProt P00734)
# Setting: whole 15-mer aptamer, many near background
Modification,mean fluorescence intensity [a.u.]
2'F-ANA at 5 6 9 15,69.3
2'F-ANA at 1 2 4 5 6 7 8 10 11 13 14 15,52
2'F-ANA at 3 7 9 10 11 12 15,574
2'F-ANA at 4 7 8 11,378
2'F-ANA at 2 5 6 9 10 13 15,78.5
2'F-ANA at 2 4 5 6 7 8 9 10 11 13,48.6

# Study 2 — technique: protein binding microarray; form: double-stranded DNA, one strand shown; medium: in vitro; concentration: not given; baseline: not given; reading: higher = stronger binding
# Target: Histone acetyltransferase KAT6A, both winged helices, GST fusion (KAT6A, Homo sapiens, UniProt Q92794, residues 1-181)
# Setting: 8-mer, flanks averaged, mean of 2 arrays, mostly near background
# Construct (chain): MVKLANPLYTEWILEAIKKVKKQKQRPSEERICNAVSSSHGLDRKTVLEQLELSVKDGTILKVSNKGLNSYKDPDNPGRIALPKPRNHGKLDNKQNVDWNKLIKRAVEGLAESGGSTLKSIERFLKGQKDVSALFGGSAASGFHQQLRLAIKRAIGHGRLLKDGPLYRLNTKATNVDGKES
Oligonucleotide,E-score
CAGTATGG,-0.222
GGCCCGTA,0.211
ATTGTAAC,-0.0249
CCTAGTAA,-0.0853
ACTGGGCG,-0.0267
ACCGCAAC,0.0827

# Study 3 — target: CCNE1, cyclin fold, Cln2 fusion (human); technique: yeast growth competition, sequencing; medium: yeast; setting: strong parent motif; baseline: not given; reading: higher = stronger binding
# Starting sequence: BRCA2 docking peptide (human); PSIKRNLLNEFDR
Variant,normalised enrichment score
K4C,3.59
L8A,0.235
E10P,0.274
F11D,0.144
F11M,1.12

# Single results of other studies
Molecule,target,assay,test system,setting,how to read,quantity,result
"PhoQ, residues 284 288 289 292 302 303 GLASVI","PhoP, residues 12 14 15 18 19 LWHVM (Escherichia coli, UniProt P23836)","Sort-seq, measured: YFP reporter",E. coli,"PhoQ-PhoP variant library, with: 10 µM Mg2+","baseline: high Mg2+ state, higher = stronger signaling",fold induction,9.14

# Excerpt of the above (study 2):
Oligonucleotide,E-score
GGCCCGTA,0.211
